Measured values from different studies.
Protocols differ between the studies behind these lines. Several values in a cell are separate wells, animals, samples, runs or records. ± gives the spread as reported.

Structure (SMILES) = N[C@@H]1c2ccccc2OC12CCN(c1cnc3c(N4CCCc5ncccc54)n[nH]c3n1)CC2; test system = patients advanced metastatic solid tumours; conditions = oral, dose not given, all patients; quantity = TEAE leading to death; value = 1.8%
Structure (SMILES) = CC(=O)c1c(C)c2cnc(Nc3ccc(C4CCN(CCS(C)(=O)=O)CC4)cn3)nc2n(C2CCCC2)c1=O; test system = human, plasma; conditions = oral, 150 mg, day 1 single dose; quantity = Vd; value = 1160 L
Structure (SMILES) = C[C@]1(CO)Cc2ncn(-c3ccc(C#N)c(Cl)c3)c2C(=O)O1; assay = measured: involuntary muscle contractions; test system = human; conditions = 80 mg single dose; quantity = subjects with drug-related TEAE; value = 0%
Structure (SMILES) = CO[C@H]1C[C@@H]2CC[C@@H](C)[C@@](O)(O2)C(=O)C(=O)N2CCCC[C@H]2C(=O)O[C@H]([C@H](C)C[C@@H]2CC[C@@H](OC(=O)NCCOCCOCCOCCOCCOCCOCCOCCOCCC(=O)N3CCc4cc(Cn5nc(-c6ccc7oc(N)nc7c6)c6c(N)ncnc65)ccc4C3)[C@H](OC)C2)C[C@@H](O)[C@H](C)/C=C(\C)[C@@H](O)[C@@H](OC)C(=O)[C@H](C)C[C@H](C)/C=C/C=C/C=C/1C; test system = patients with advanced solid tumours; conditions = intravenous, 8 mg weekly, grade 3 or higher; quantity = vomiting incidence; value = 0%
Structure (SMILES) = CC(C)n1c(C2CCNCC2)nc2c([N+](=O)[O-])c(Br)c(Br)cc21; assay = measured: Dysuria; test system = AML patients; conditions = 125 mg; quantity = adverse events causing interruption; value = 2%
Structure (SMILES) = O=c1cc(-c2ccc(O)c(O)c2)oc2cc(O)cc(O)c12; test system = Sprague-Dawley rat, male, lean, urine; conditions = oral, 100 mg/kg neohesperidin, 48 h; scale = relative to: dose; quantity = urinary recovery; value = 0.02 ± 0.01%
Structure (SMILES) = O=C(O)CCCOc1ccc(F)cc1-c1cc(-c2ccccc2C(F)(F)F)n(-c2ccccc2)n1; test system = Crl:CD(SD) rat, male; conditions = intravenous, 25 µg/kg, 14 days post-dose; scale = relative to: body weight; quantity = relative pituitary weight; value = 4 ± 0.3 mg%
Structure (SMILES) = Cn1ncc(-c2nc(N[C@H]3CC[C@H](N)CC3)ncc2Cl)c1CC1CC1; assay = HPLC-MS/MS; test system = patients, plasma; conditions = oral, 42 mg, day 1; quantity = Cmax; value = 99 ng/mL
Structure (SMILES) = CC(C)[C@@H]1NC(=O)CNC(=O)[C@H](CC(N)=O)NC(=O)[C@H](CCCNC(=N)N)NC(=O)[C@H](Cc2ccc(O)cc2)NC(=O)[C@H](C(C)C)NC(=O)[C@@H](NC(=O)[C@@H](NC(=O)[C@H](CC(N)=O)NC(=O)[C@H](Cc2c[nH]c3ccccc23)NC(=O)[C@H](C)NC(=O)[C@H](Cc2ccccc2)NC(=O)CN)C(C)C)CSSC[C@@H](C(=O)N[C@@H](Cc2cnc[nH]2)C(=O)N[C@@H](CCCNC(=N)N)C(=O)N[C@@H](CCCNC(=N)N)C(=O)N[C@@H](C)C(=O)N[C@@H](CC(N)=O)C(N)=O)NC(=O)[C@H](C(C)C)NC(=O)[C@H](CCCNC(=N)N)NC1=O; assay = HPLC; test system = mouse mammary gland homogenate; conditions = 2560 µM, 2.00 h, 37 °C, 50 mg/mL tissue; quantity = remaining peptide; value = 67.2% and 78.9% and 73.5%
Structure (SMILES) = CC1(C)NC(=O)N(c2ccc(F)c(CC(F)(F)F)c2)C1=O; test system = Schistosoma mansoni-infected NMRI mice; conditions = oral, 100 mg/kg, single dose; quantity = toxicity; value = toxic
Structure (SMILES) = CN1CC[C@@H](c2c(O)cc(O)c3c(=O)cc(-c4ccc(C(F)(F)F)cc4Cl)oc23)[C@@H]1CO; assay = measured: Hypotension; test system = B-cell malignancies; conditions = oral, 200 mg, intermittent dosing; quantity = patients with adverse event; value = 0%
Structure (SMILES) = O=[N+]([O-])NC1=NCCN1Cc1ccc(Cl)nc1; test system = cow whole milk; conditions = 200 nM; scale = relative to: milk fat over skim milk; quantity = milk fat partition ratio; value = 0.51
Structure (SMILES) = COc1cccc(Oc2ccccc2NC(=O)CNC(=O)c2cccc3ccccc23)c1; test system = esterase-deficient SCID mice, male; conditions = oral, 100 mg/kg/day, 14 days, toxicity study; quantity = alkaline phosphatase; value = 59 U/L and 61 U/L and 87 U/L
Structure (SMILES) = C1=Cc2nc1cc1ccc([n-]1)c(C1CC1)c1nc(cc3ccc([n-]3)c2C2CC2)C=C1.CC(=O)[O-].[Mn+3]; assay = LC-MS/MS; test system = Sprague-Dawley rat, plasma; conditions = oral gavage, dose not given, 60 min, individual rat Rat2; quantity = plasma concentration; value = 160 ng/mL

Excerpt of the above:
Structure (SMILES) = CC(=O)c1c(C)c2cnc(Nc3ccc(C4CCN(CCS(C)(=O)=O)CC4)cn3)nc2n(C2CCCC2)c1=O; test system = human, plasma; conditions = oral, 150 mg, day 1 single dose; quantity = Vd; value = 1160 L
Structure (SMILES) = C[C@]1(CO)Cc2ncn(-c3ccc(C#N)c(Cl)c3)c2C(=O)O1; assay = measured: involuntary muscle contractions; test system = human; conditions = 80 mg single dose; quantity = subjects with drug-related TEAE; value = 0%
